Measurements collected from several papers.
Each numbered part is a random draw from the data of one study; scales do not carry over between parts.
Sequence of UniProt P36544 (whole entry, looked up): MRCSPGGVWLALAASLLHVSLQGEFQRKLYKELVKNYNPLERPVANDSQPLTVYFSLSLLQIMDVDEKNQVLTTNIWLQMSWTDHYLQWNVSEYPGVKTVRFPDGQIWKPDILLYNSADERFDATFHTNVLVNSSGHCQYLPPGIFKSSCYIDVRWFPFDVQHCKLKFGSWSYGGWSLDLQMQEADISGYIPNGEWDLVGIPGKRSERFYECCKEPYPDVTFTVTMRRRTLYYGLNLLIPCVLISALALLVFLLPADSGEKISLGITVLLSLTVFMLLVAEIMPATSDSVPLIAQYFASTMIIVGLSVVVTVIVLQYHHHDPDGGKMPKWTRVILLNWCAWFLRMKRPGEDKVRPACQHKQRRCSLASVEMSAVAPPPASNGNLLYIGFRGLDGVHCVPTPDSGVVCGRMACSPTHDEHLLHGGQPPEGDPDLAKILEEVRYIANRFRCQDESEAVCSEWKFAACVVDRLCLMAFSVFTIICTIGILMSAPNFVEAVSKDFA

Block 1 — action: antagonist; concentration: concentration not given
Target: Nicotinic acetylcholine receptor alpha9/alpha10 (Rattus norvegicus, UniProt P43144+Q9JLB5)
Sequence of UniProt Q9JLB5 (whole entry, looked up): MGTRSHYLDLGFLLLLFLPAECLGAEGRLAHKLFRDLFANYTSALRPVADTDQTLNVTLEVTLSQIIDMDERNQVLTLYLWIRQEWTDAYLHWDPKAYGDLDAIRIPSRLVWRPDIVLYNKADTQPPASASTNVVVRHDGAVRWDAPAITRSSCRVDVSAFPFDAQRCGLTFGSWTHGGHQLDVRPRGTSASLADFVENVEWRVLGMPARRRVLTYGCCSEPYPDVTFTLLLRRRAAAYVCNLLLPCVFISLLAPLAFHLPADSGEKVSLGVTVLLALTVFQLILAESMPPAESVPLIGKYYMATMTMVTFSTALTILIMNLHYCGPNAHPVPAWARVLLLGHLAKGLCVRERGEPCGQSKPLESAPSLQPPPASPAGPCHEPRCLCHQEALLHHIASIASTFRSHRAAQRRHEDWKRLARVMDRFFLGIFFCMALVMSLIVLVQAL
Sequence of UniProt P43144 (whole entry, looked up): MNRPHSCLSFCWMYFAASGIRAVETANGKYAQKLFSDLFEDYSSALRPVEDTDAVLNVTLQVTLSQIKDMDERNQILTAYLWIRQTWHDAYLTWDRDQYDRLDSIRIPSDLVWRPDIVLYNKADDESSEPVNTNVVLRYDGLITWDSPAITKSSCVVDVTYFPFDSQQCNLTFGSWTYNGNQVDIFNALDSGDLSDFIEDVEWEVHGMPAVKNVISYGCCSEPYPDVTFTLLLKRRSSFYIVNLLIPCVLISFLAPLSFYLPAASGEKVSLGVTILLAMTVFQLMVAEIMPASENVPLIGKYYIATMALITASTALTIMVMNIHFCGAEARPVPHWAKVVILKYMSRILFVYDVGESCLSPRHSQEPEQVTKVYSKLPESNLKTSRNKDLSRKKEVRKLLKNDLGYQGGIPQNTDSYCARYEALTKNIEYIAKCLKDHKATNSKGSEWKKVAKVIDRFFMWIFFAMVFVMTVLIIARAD
Structure (SMILES)	IC50
N=C(N)NCCC[C@@H]1NC(=O)[C@H](Cc2ccc(O)cc2)NC(=O)[C@H](CCCNC(=N)N)NC(=O)[C@@H]2CSSC[C@H](NC(=O)CN)C(=O)N[C@@H](CSSC[C@@H](C(=O)N[C@@H](CCCNC(N)=O)C(=O)O)NC1=O)C(=O)N[C@@H](CO)C(=O)N[C@@H](CC(=O)O)C(=O)N1CCC[C@H]1C(=O)N[C@@H](CCCNC(=N)N)C(=O)N2	3.3 nM
N=C(N)NCCC[C@H](NC(=O)[C@@H]1CSSC[C@@H]2NC(=O)[C@@H](NC(=O)CN)CSSC[C@H](NC(=O)[C@H](CCCNC(=N)N)NC(=O)[C@@H]3CCCN3C(=O)[C@H](CC(=O)O)NC(=O)[C@H](CO)NC2=O)C(=O)N[C@@H](CCCCN)C(=O)N[C@@H](Cc2ccc(O)cc2)C(=O)N[C@@H](CCCNC(=N)N)C(=O)N1)C(=O)O	> 1000 nM
N=C(N)NCCC[C@H](NC(=O)[C@@H]1CSSC[C@@H]2NC(=O)[C@@H](NC(=O)CN)CSSC[C@H](NC(=O)[C@H](CCCNC(=N)N)NC(=O)[C@@H]3CCCN3C(=O)[C@H](CC(=O)O)NC(=O)[C@H](CO)NC2=O)C(=O)N[C@@H](CCCNC(=N)N)C(=O)N[C@@H](Cc2ccc(O)cc2)C(=O)N[C@@H](CCCCN)C(=O)N1)C(=O)O	1.6 nM

Single results of other studies
Structure (SMILES)	target	assay	setting	measurement	value
CC(=O)N[C@@H](CC(=O)O)C(=O)N[C@@H](CCC(=O)O)C(=O)N[C@@H](Cc1ccc(OP(=O)(O)O)cc1)C(=O)N[C@@H](CC(=O)O)C(=O)N[C@@H](CC(=O)O)C(=O)N1CCC[C@H]1C(=O)N[C@@H](Cc1ccccc1)C(N)=O	Secreted effector protein, N-terminal domain (Yersinia pestis, UniProt O68720)	binding, ITC		ITC stoichiometry	0.87
CC[C@H](C)[C@@H]1NC(=O)[C@@H]2CCCN2C(=O)[C@H](CO)NC(=O)[C@H](CCSC)NC(=O)[C@H](C)NC(=O)[C@H](C)NC(=O)[C@@H]2CSSC[C@H](NC(=O)CN)C(=O)N[C@@H](CSSC[C@@H](C(N)=O)NC1=O)C(=O)N[C@@H](CO)C(=O)N[C@@H](Cc1cnc[nH]1)C(=O)N1CCC[C@H]1C(=O)N[C@@H](C(C)C)C(=O)N2	Nicotinic acetylcholine receptor alpha9/alpha10 (Rattus norvegicus, UniProt P43144+Q9JLB5)	antagonist		IC50	> 10000 nM
CC[C@H](C)[C@@H]1NC(=O)[C@H](CCC(=O)O)NC(=O)[C@@H]2CCCN2C(=O)[C@H](Cc2cnc[nH]2)NC(=O)[C@H](CC(=O)O)NC(=O)[C@H](C(C)C)NC(=O)[C@H](CC(N)=O)NC(=O)[C@@H]2CSSC[C@H](NC(=O)CN)C(=O)N[C@@H](CSSC[C@@H](C(N)=O)NC1=O)C(=O)N[C@@H](CO)C(=O)N[C@@H](Cc1cnc[nH]1)C(=O)N1CCC[C@H]1C(=O)N[C@@H](C)C(=O)N2	CHRNA7 (Homo sapiens, UniProt P36544)		cell-based	IC50	> 10000 nM

Repeated from above (block 1):
Structure (SMILES)	IC50
N=C(N)NCCC[C@@H]1NC(=O)[C@H](Cc2ccc(O)cc2)NC(=O)[C@H](CCCNC(=N)N)NC(=O)[C@@H]2CSSC[C@H](NC(=O)CN)C(=O)N[C@@H](CSSC[C@@H](C(=O)N[C@@H](CCCNC(N)=O)C(=O)O)NC1=O)C(=O)N[C@@H](CO)C(=O)N[C@@H](CC(=O)O)C(=O)N1CCC[C@H]1C(=O)N[C@@H](CCCNC(=N)N)C(=O)N2	3.3 nM
